Results collected from several papers.
A part holds a random share of what one study measured. Positions count from the first letter of the parent shown.

Block 1 — technique: DHFR PCA, deep sequencing; sample: yeast; with: (+)-ABA 1.4 µM; baseline: wild-type fitted maximum; direction: higher = stronger binding
Target: ABI1, truncated, D143A, DHFR fusion (Arabidopsis thaliana)
Setting: methotrexate growth selection, single substitutions
Starting sequence: PYL1, truncated, DHFR fusion (Arabidopsis thaliana); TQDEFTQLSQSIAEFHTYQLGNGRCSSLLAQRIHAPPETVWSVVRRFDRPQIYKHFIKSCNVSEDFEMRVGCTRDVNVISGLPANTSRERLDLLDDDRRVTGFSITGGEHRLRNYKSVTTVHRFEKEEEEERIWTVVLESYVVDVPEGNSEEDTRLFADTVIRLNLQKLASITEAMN; partner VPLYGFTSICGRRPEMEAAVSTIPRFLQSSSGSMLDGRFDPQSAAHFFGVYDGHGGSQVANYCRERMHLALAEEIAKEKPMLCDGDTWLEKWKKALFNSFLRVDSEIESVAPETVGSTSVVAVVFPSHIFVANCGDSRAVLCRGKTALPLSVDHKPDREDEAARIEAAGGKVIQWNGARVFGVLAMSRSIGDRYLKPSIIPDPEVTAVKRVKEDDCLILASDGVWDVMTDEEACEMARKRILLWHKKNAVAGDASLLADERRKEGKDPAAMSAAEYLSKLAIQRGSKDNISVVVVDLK
`G71M`: “relative binding score” -7.36%.
Under “relative binding score”, `M68V` is recorded as 39.8%.
`R90C` — result for “relative binding score”: 6.8%.
`K58E` — result for “relative binding score”: 22.9%.
For `Q19N`, “relative binding score” read 50.9%.
`S171M`: “relative binding score” 47%.
For `R98H`, “relative binding score” read 27.4%.

Block 2 — target: CCND3, cyclin fold, Cln2 fusion (human); technique: yeast growth competition, sequencing; sample: yeast; setting: weak parent motif; baseline: not given; direction: higher = stronger binding
Starting sequence: PKN2 docking peptide (human); DSTVTKLDFDLEP
Under “normalised enrichment score”, `T3A` is recorded as -0.197.
For `V4A`, “normalised enrichment score” read -0.408.
`T5A` — result for “normalised enrichment score”: -0.358.
`L11A` — result for “normalised enrichment score”: -0.167.
`E12A`: “normalised enrichment score” -0.31.
For `F9A`, “normalised enrichment score” read -0.132.

Block 3 — technique: RNA Bind-n-Seq; molecule type: RNA; sample: in vitro; tested at: 365 nM; baseline: no-protein control; direction: higher = stronger binding
Target: RNA binding protein fox-1 homolog 2, RRM domain, GST-SBP tag (RBFOX2, Homo sapiens, UniProt O43251-10, residues 100-194)
Setting: natural RNA segment, single round, ends assumed
Residues (chain): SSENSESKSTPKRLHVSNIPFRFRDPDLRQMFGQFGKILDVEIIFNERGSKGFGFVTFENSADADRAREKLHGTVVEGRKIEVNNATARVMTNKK
Under “RBNS enrichment (R)”, `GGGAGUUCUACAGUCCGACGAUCGUUUUGAGCAUGGCUAGUGGAUUUACAACAACACAUGCCUGUCACUGCUGGAGUCAGACUUACAAAAGCCUUAAGCGGAAAGUGUCCAGACCAGGCUGAGUCAGUAAAGGUGGAAUUCUCGGGUGCCAA` is recorded as 0.893.
For `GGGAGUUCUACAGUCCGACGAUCUCUGAGGUCCCCAGAGACCAAAGCCAGAUCGUCUGUCCCCCACACCUUAGGUGGGCACAGGAGGGCCGAGCUUGUUUCUACCCACUGGCAGCUGCUGACUCAACUCUGGGUGGAAUUCUCGGGUGCCAA`, “RBNS enrichment (R)” read 0.476.
Under “RBNS enrichment (R)”, `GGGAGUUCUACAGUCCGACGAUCUUUCCUCAUCUAUGAAAUGAAGAUUGUAGUUUUUAUUUCAUAGAGUCAUGAAGAUUGAGUUAAUCUCUGAAAUAUCCACACAGUGUUGUCACUCAGGAAUGAUUUGGAAUUGGAAUUCUCGGGUGCCAA` is recorded as 0.349.
`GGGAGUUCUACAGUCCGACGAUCGAUCCAAGGUAAGAUUGCCUUCAGUCUGAUGUUUGUUCUCAAGGACUUAUCCCCUACAAUAUUCUCCCACUCCAUACUUCUCCUUCUACCCCACCAUGUGCUCCCGUGCAUGGAAUUCUCGGGUGCCAA` — result for “RBNS enrichment (R)”: 2.11.
For `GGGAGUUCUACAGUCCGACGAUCCAUCACCUGGCACGCAGGCGCCUUACAUUCUACGGUAGAACGUGGGGUACUGUGUGUGCACAUAGACACACUUACGUGGAAUUACAGUUGUGGGUUUAUCCAAGAUGAGGUGGAAUUCUCGGGUGCCAA`, “RBNS enrichment (R)” read 0.253.
`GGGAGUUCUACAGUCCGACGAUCUUUAAACAAUUUUUAAGACUUGUAAUUACCCUGAAAAUAAGGUUUAUAAUGCAAAGACCAGCUCCUUUGCGGUGGCAGUGCUCUAGGGCUGCCAUUACACGGUCUUGUGAUGGAAUUCUCGGGUGCCAA`: “RBNS enrichment (R)” 0.28.
`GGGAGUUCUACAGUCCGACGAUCUAAAAUGCGUUCAGAAAUUUGAUUUAUUCUUGGACUGUACUCUUCGCAUGGACUGGGAAGUUCUUUUAAAUCAUUAAAUAUUAAGACGACCAUCUCUUCUAUUAAAUUACUGGAAUUCUCGGGUGCCAA` — result for “RBNS enrichment (R)”: 3.33.
Under “RBNS enrichment (R)”, `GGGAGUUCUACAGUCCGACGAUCUGAAUUUGGAAUUUAUUUCUUCCAUGUUUUGAUCAAUUCUCUGUAACUUUUCUUGGCUUAUAAGGUCCAAUUUCUGUGUCUGGAGGUAUAAAAAAAUUACACUGACUACUUGGAAUUCUCGGGUGCCAA` is recorded as 0.367.

Mixed results
With `PhoQ, residues 284 288 289 292 302 303 SIHMAM` the fold induction was 11.5 (PhoP, residues 12 14 15 18 19 LHSVQ (Escherichia coli, UniProt P23836); Sort-seq, measured: YFP reporter; E. coli; PhoQ-PhoP variant library, with: 10 µM Mg2+; baseline: high Mg2+ state, higher = stronger signaling).

Excerpt of the above (block 3):
`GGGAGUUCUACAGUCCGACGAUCUUUAAACAAUUUUUAAGACUUGUAAUUACCCUGAAAAUAAGGUUUAUAAUGCAAAGACCAGCUCCUUUGCGGUGGCAGUGCUCUAGGGCUGCCAUUACACGGUCUUGUGAUGGAAUUCUCGGGUGCCAA`: “RBNS enrichment (R)” 0.28.
